Published values collected from several papers.
Numbered parts are unrelated; each lists some results of a single study.

Set 1
Technique: PRP chromatography
Setting: linear fit, 1 mL
Compound	logD 1,9-decadiene/water
CC(C)C[C@@H]1NC(=O)[C@H](C)NC(=O)[C@@H](Cc2cscn2)NC(=O)[C@@H](CC(C)C)NC(=O)[C@H](C)NC(=O)[C@H](CC(C)C)NC(=O)[C@H](CC(C)C)NC1=O	-1.68 log units
CC(C)C[C@@H]1NC(=O)[C@H](CC(C)C)NC(=O)[C@H](CC(C)C)NC(=O)[C@H](C(C)C)NC(=O)[C@H](C)NC(=O)[C@@H](CC(C)C)NC(=O)[C@H](C)NC1=O	-0.77 log units
CC(C)C[C@@H]1NC(=O)[C@H](C)NC(=O)[C@@H](CC(C)C)NC(=O)[C@@H](CC(C)C)NC(=O)[C@H](C)NC(=O)[C@H](CC(C)C)NC(=O)[C@@H](CC(C)C)NC1=O	0.346 log units
CC(C)C[C@@H]1NC(=O)[C@H](CC(C)C)NC(=O)[C@@H](CC(C)C)NC(=O)[C@H](C(C)C)NC(=O)[C@@H](CCC(=O)N2CCCC2)NC(=O)[C@H](C)NC(=O)[C@H](C)NC1=O	-2.74 log units
CC(C)C[C@@H]1NC(=O)[C@@H](C)NC(=O)[C@@H](CC(C)C)NC(=O)[C@H](C)NC(=O)[C@H](C(C)C)NC(=O)[C@H](CC(C)C)NC(=O)[C@@H](CC(C)C)NC1=O	-0.77 log units
CC(C)C[C@@H]1NC(=O)[C@H](Cc2cscn2)NC(=O)[C@H](C)NC(=O)[C@@H](CC(C)C)NC(=O)[C@@H](CCC(=O)N2CCCC2)NC(=O)[C@H](CC(C)C)NC(=O)[C@@H](CC(C)C)NC1=O	-0.765 log units
CC(C)C[C@@H]1NC(=O)[C@H](C)NC(=O)[C@H](CCC(=O)N2CCCC2)NC(=O)[C@H](CCC(=O)N2CCCC2)NC(=O)[C@@H](CCC(=O)N2CCCC2)NC(=O)[C@H](CC(C)C)NC(=O)[C@@H](CC(C)C)NC1=O	-4.9 log units

Set 2
Target: 5-hydroxytryptamine receptor 1B (HTR1B, Homo sapiens, UniProt P28222)
UniProt P28222, sequence (whole entry, looked up): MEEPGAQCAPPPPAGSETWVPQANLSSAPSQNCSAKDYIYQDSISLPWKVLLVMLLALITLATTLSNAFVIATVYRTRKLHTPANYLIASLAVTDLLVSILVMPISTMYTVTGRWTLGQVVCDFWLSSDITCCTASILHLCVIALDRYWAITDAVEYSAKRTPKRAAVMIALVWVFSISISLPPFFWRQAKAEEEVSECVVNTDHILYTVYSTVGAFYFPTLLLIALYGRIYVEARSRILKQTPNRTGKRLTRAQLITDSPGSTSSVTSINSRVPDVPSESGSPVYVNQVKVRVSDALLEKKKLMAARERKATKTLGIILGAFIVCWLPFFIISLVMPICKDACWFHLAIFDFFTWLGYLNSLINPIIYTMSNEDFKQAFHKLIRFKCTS
Effect on: ligand displacement
Technique: radioligand
Tested at: 10 µM
Structure (SMILES)	inhibition
CN([C@@H]1CCc2c(CC(=O)O)c3ccccc3n2C1)S(=O)(=O)c1ccc(F)cc1	35.6%
CNCc1ccccc1-c1csc([C@@H](C)Nc2nc(C)nc3cc(OC)c(OC)cc23)c1	66.1%
CCc1ccccc1C(=O)Nc1n[nH]c2c(C)c(F)c(C3C(C#N)=C(C)N(C)C(C)=C3C#N)cc12	9.48%
O=C(N1CCS(=O)(=O)CC1)N1C[C@H](c2ccc(OC(F)(F)F)cc2)C[C@H](c2nc(C3CC3)no2)C1	30.8%
O=C(O)c1cc(-c2ccc(C3CCNCC3)cc2)c2ccc(-c3ccc(C(F)(F)F)cc3)cc2c1	20.4%
CNC(=O)Nc1ccc2c(c1)C1(CC2)OC(=O)N(CC(=O)N(Cc2ccc(F)cc2)[C@@H](C)C(F)(F)F)C1=O (single isomer, unassigned)	11.2%
O=C(NS(=O)(=O)c1ccc(NCC2CCOCC2)c([N+](=O)[O-])c1)c1ccc(N2CCN(Cc3ccc(C(F)(F)F)cc3-c3ccc(Cl)cc3)CC2)cc1Oc1cnc2[nH]ccc2c1	-6.15%
Cc1ccc(-c2cnc([C@@]3(O)CC[C@H](C(=O)O)C(C)(C)C3)s2)cc1Nc1cccc(C(F)(F)F)n1	20.2%
CN(C)C(=O)Cn1cc(-c2nc(C3(c4ccc(-c5cnc(N)nc5)cc4)CC3)no2)cn1	-13.9%
O=C1NC(c2ccccn2)Sc2ccccc21 (stereo not shown)	12.3%

Set 3
Target: Proto-oncogene tyrosine-protein kinase receptor Ret (RET, Homo sapiens, UniProt P07949)
UniProt P07949, sequence (whole entry, looked up): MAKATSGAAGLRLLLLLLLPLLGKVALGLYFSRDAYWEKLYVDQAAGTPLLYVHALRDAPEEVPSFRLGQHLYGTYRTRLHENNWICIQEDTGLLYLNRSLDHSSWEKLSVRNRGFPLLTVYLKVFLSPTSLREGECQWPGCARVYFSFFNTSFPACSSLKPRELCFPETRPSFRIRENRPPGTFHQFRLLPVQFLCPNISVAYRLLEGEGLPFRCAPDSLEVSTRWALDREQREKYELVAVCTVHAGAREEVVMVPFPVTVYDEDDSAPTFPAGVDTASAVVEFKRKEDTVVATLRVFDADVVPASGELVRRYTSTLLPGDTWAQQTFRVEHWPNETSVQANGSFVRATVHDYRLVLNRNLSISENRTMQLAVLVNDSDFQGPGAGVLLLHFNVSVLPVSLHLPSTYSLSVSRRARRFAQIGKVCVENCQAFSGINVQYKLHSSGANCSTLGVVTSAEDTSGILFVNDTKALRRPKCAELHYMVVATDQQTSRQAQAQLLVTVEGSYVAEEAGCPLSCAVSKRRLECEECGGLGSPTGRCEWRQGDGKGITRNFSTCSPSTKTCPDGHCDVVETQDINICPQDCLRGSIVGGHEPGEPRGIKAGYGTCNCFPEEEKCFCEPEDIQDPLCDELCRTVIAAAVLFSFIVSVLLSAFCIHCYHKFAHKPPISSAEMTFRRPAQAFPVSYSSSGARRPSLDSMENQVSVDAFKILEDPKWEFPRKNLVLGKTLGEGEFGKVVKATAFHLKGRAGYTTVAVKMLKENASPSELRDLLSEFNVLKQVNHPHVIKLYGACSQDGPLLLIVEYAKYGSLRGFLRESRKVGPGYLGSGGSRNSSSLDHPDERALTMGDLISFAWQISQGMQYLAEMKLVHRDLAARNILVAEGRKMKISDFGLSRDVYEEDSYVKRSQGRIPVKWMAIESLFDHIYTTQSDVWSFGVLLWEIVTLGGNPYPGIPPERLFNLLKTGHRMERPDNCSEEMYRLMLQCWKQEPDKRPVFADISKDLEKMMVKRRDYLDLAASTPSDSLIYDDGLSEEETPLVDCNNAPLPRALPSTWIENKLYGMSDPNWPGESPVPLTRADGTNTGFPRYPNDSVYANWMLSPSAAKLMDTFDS
Effect on: enzyme activity
Mode: inhibitor
Tested at: 0.5 µM
Reference: control
Structure (SMILES)	remaining activity
CC(C)(C)c1nc2c3cc[nH]c(=O)c3c3cc(F)ccc3c2[nH]1	18.3%
O=C1Cc2c([nH]c3ccc(Br)cc23)-c2ccccc2N1	102%
c1ccc2c(-c3ccncc3)c[nH]c2c1	97.3%
CCCCc1c(-c2ccc(O)cc2)[nH]c2nccnc12	52.6%
CCCNC(=O)Nc1ccc(Oc2ncnc3cc(OC)c(OC)cc23)cc1Cl	8.42%
CCCCc1c(-c2ccc(OC)cc2)[nH]c2nccnc12	56.3%
N#CC(c1ccnc(NCCc2cccnc2)n1)c1nc2ccccc2s1 (stereo not shown)	70.1%
COc1cccc(-c2cc(=O)c3ccccc3o2)c1N	107%
O=Nc1c(-c2c(O)[nH]c3ccccc23)[nH]c2ccccc12	8.05%
Clc1ccc(Nc2nnc(Cc3ccncc3)c3ccccc23)cc1	89.1%
O=C1Nc2ccc(Br)cc2/C1=C/c1cc2c([nH]1)CCCC2	42.9%
O=c1cc(N2CCOCC2)oc2c(-c3ccccc3)cccc12	99.2%
O=c1c(-c2ccc(F)cc2)c(-c2ccncc2)[nH]n1-c1ccc(Cl)cc1	99.6%
Cc1ccc(S(=O)(=O)/C=C/C#N)cc1	102%
O=C(c1ccccc1)c1ccc(N2CCOCC2)cc1O	97.8%
Nc1nc(Nc2ccc(S(N)(=O)=O)cc2)nn1C(=S)Nc1c(F)cccc1F	3.09%
O=C1NC(=O)/C(=C/c2ccc3c(c2)OC(F)(F)O3)S1	102%
c1ccc(-c2n[nH]c3c2oc2ccccc23)cc1	78.2%
CCN(CC)CCCCN1c2ccccc2Oc2ccc(Cl)cc21	96.3%
O=C1NC(=O)c2c1c1c3ccccc3[nH]c1n1cncc21	42%
CNc1cc2c(Nc3cccc(Br)c3)ncnc2cn1	78.5%
CN(C)S(=O)(=O)c1ccc2c(c1)/C(=C/c1cc3c([nH]1)CCCC3)C(=O)N2	6.29%
O=Nc1c(-c2c(O)[nH]c3cc(Br)ccc23)[nH]c2ccccc12	0.0602%
COc1ccc2c(c1)c(C1=C(c3c[nH]c4ccccc34)C(=O)NC1=O)cn2CCCN(C)C	79.9%
O=C(O)/C=C/c1cc(Br)c(Br)c(Br)c1Br	76.4%

Set 4
Target: Diamine acetyltransferase 1 (Homo sapiens, UniProt P21673)
Mode: inhibitor
Tested at: 10 µM
Reference: control
Construct (P21673 1-171): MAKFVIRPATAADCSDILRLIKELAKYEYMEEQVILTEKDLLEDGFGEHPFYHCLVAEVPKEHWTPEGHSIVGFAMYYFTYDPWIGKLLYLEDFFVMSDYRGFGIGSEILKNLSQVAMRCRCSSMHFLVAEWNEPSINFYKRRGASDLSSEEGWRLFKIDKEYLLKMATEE
Compound	remaining activity [%]
NCCc1ccc(O)c(O)c1	84.8
O=c1cc(-c2ccccc2)oc2ccccc12	83.1
CC1=CC(=O)C(C(C)C)CC1 (stereo not shown)	101
N[C@@H](Cc1ccc(O)c(O)c1)C(=O)O	82.4
O=c1ccc2ccc(O)c(O)c2o1	100
C=C[C@]1(C)CC[C@@H](C(=C)C)C[C@H]1C(=C)C	96
COc1cc(/C=C/C(=O)OCCc2ccc(O)cc2)ccc1O	83.8
O=C(O)c1ccc(O)c(O)c1	73.1
C[C@H]1CC[C@@]2(OC1)O[C@H]1C[C@H]3[C@@H]4CC=C5C[C@@H](O)CC[C@]5(C)[C@H]4CC[C@]3(C)[C@H]1[C@@H]2C	96.8
Cc1cc(O)cc2c1O[C@](C)(CCC[C@H](C)CCC[C@H](C)CCCC(C)C)CC2	95.7

Repeated from above (set 4):
Compound	remaining activity [%]
CC1=CC(=O)C(C(C)C)CC1 (stereo not shown)	101
N[C@@H](Cc1ccc(O)c(O)c1)C(=O)O	82.4
O=c1ccc2ccc(O)c(O)c2o1	100
C=C[C@]1(C)CC[C@@H](C(=C)C)C[C@H]1C(=C)C	96
COc1cc(/C=C/C(=O)OCCc2ccc(O)cc2)ccc1O	83.8
O=C(O)c1ccc(O)c(O)c1	73.1
C[C@H]1CC[C@@]2(OC1)O[C@H]1C[C@H]3[C@@H]4CC=C5C[C@@H](O)CC[C@]5(C)[C@H]4CC[C@]3(C)[C@H]1[C@@H]2C	96.8
Cc1cc(O)cc2c1O[C@](C)(CCC[C@H](C)CCC[C@H](C)CCCC(C)C)CC2	95.7
